Assay results of several laboratories.
Parts stem from different laboratories: compare values within a part only.

Set 1
Target: Sal-like protein 4, full length isoform B (SALL4, Homo sapiens, UniProt Q9UJQ4-2, residues 1-616)
Technique: universal PBM
Form: double-stranded DNA, one strand shown
Medium: in vitro
Tested at: not given
Setting: 8-mer, flanks averaged, mean of replicates
Direction: higher = stronger binding
Construct (chain): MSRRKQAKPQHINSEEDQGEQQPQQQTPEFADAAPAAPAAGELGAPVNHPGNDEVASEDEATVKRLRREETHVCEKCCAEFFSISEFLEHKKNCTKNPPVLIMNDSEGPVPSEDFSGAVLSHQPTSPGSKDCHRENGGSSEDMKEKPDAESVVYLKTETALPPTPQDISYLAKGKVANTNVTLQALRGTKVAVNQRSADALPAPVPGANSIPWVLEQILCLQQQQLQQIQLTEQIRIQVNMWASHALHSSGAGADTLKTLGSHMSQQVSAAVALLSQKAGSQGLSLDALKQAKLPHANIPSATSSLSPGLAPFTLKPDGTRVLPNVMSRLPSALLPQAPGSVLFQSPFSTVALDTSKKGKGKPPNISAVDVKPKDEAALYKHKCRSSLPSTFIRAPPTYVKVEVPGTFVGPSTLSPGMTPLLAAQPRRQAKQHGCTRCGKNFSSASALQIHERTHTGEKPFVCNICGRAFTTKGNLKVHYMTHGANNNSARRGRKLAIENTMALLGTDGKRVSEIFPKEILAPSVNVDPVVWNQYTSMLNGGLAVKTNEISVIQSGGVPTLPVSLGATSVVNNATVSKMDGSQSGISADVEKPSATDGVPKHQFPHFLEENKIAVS
| Oligonucleotide | E-score |
| --- | --- |
| GTTGTTTA | 0.25 |
| ATCTGGTG | -0.0828 |
| ACCCGGAC | -0.371 |
| CAGTAAAG | 0.0902 |

Set 2
Target: RNA binding protein fox-1 homolog 2, RRM domain, GST-SBP tag (RBFOX2, Homo sapiens, UniProt O43251-10, residues 100-194)
Technique: RNA Bind-n-Seq
Form: RNA
Medium: in vitro
Tested at: 365 nM
Setting: natural RNA segment, single round, ends assumed
Relative to: no-protein control
Direction: higher = stronger binding
| Oligonucleotide | RBNS enrichment (R) |
| --- | --- |
| GGGAGUUCUACAGUCCGACGAUCCGGAGGCGGCCUUCUGGGUCCCCACCUCUCCUGGUUCCGCUGCUGCUCUCCCUGCUGAUGAUAAAGUAAUCUCUGGAGUCACACCUGGGCCAUGUGAUUGUUUUAUUUUGUGGAAUUCUCGGGUGCCAA | 0.444 |
| GGGAGUUCUACAGUCCGACGAUCCCUGCCAAGCACCUUGAAUGGGAGGGGUCCUUCAAGUGGGCCGGGCUGGGGUCCAACGGGGGUGGGGGAGGUUCCUGCUCUGCCCCAGCUGGGUCCUACCCAGUCUUGUCUGGAAUUCUCGGGUGCCAA | 0.385 |
| GGGAGUUCUACAGUCCGACGAUCUAGUUGGCUUUGUUUUCCUUAAAGGAUAAAACUUGCAUUGGACAAUCAAGGACAAUGAAGCCUCACCAAUAUAUUUCUUGUGGUGCUGGGAUCAAACCCAGGACAGCAUUUGGAAUUCUCGGGUGCCAA | 0.414 |
| GGGAGUUCUACAGUCCGACGAUCCGUUGUAUAUUUUUGGAAACGUUCUUUAGAAUACAUUUCUGCAUUAUUUGUAUGCUUCCCAGAGAAGCUCAUUUCAUUACAAAAGGCACAUUUUAAAGCCUGCUGAUAACUGGAAUUCUCGGGUGCCAA | 0.644 |

Set 3
Target: Interferon regulatory factor 3, full length, phosphomimetic (IRF3, Homo sapiens, UniProt Q14653, residues 1-427, S386D/S396D/S398D/S402D/T404D/S405D)
Technique: protein-binding microarray
Form: double-stranded DNA, one strand shown
Medium: in vitro
Tested at: 2540 nM top
Setting: 60-bp whole probe
Together with: salmon DNA 0.4 mg/ml
Relative to: random background probes
Direction: higher = stronger binding
Target sequence (chain): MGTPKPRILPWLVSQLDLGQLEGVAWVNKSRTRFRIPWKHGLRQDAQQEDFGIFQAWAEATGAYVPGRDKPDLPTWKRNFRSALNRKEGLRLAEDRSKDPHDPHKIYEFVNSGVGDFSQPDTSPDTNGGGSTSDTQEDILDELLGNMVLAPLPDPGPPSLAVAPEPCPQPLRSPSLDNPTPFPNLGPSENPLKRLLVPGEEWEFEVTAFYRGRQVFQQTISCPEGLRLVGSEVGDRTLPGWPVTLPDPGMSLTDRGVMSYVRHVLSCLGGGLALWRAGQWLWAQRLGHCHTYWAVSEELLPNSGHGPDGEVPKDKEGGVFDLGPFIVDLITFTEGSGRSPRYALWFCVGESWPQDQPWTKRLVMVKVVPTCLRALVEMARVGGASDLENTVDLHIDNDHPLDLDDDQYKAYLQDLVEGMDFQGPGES
| Oligonucleotide | fitted relative affinity |
| --- | --- |
| GCCTAGCACGACGATATCAGTTTCGAGAAGTGCTAGGTCTTGATTCGCTTGACGCTGCTG | 3 z-score |
| GCCTAGCACTTAGATTTCGGGTTTCGAATAGTGCTAGTCTTGATTCGCTTGACGCTGCTG | 3.08 z-score |
| GCCTAGCACTTAGGTCTCGGTTTCGGTTCGTGCTAGGTCTTGATTCGCTTGACGCTGCTG | 6.17 z-score |
| GCCTAGCACTTTTCTCTGGTTCTTGCTTGGTGCTAGGTCTTGATTCGCTTGACGCTGCTG | 1.8 z-score |

Other studies, line by line
| Molecule | target | test | system | setting | how to read | measurement | result |
| --- | --- | --- | --- | --- | --- | --- | --- |
| PhoQ, residues 284 288 289 292 302 303 AGCYAI | PhoP, residues 12 14 15 18 19 AQALL (Escherichia coli, UniProt P23836) | Sort-seq, refers to: YFP reporter | E. coli | PhoQ-PhoP variant library, together with: 10 µM Mg2+ | relative to: high Mg2+ state, higher = stronger signaling | fold induction | 5.84 |

Some of these lines once more (set 3):
| Oligonucleotide | fitted relative affinity |
| --- | --- |
| GCCTAGCACGACGATATCAGTTTCGAGAAGTGCTAGGTCTTGATTCGCTTGACGCTGCTG | 3 z-score |
